Measurements collected from several papers.
A part holds a random share of what one study measured. Substitutions count along the parent as printed.

Block 1
Variant: S26Q
Target: ABI1, truncated, D143A, DHFR fusion (Arabidopsis thaliana)
Method: DHFR PCA, deep sequencing
Medium: yeast
Setting: methotrexate growth selection, single substitutions
Reference: wild-type fitted maximum
Reading: higher = stronger binding
Starting sequence: PYL1, truncated, DHFR fusion (Arabidopsis thaliana); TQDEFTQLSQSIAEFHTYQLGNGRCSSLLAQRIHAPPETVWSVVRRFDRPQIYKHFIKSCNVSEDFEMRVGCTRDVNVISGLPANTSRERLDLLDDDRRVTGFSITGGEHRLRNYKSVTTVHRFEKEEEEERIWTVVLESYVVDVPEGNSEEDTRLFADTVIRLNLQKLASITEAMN; partner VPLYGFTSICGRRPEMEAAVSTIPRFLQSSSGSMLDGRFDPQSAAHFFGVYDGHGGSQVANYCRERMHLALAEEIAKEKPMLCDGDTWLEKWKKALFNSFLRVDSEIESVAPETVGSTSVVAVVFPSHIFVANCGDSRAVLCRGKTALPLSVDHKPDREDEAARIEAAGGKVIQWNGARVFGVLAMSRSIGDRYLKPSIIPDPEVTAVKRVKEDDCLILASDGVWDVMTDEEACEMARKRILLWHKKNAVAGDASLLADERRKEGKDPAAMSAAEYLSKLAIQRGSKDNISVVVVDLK
| together with | relative binding score |
| --- | --- |
| (+)-ABA 0.11 µM | 4.38% |
| (+)-ABA 17 µM | 66% |
| (+)-ABA 0 µM | 1.65% |
| (+)-ABA 0.0091 µM | 2.35% |
| (+)-ABA 200 µM | 92.3% |
| (+)-ABA 1.4 µM | 9.62% |

Block 2
Target: Protein C-ets-1 (ETS1, Homo sapiens, UniProt P14921, residues 1-441, full length assumed)
Sequence of UniProt P14921 (whole entry, looked up): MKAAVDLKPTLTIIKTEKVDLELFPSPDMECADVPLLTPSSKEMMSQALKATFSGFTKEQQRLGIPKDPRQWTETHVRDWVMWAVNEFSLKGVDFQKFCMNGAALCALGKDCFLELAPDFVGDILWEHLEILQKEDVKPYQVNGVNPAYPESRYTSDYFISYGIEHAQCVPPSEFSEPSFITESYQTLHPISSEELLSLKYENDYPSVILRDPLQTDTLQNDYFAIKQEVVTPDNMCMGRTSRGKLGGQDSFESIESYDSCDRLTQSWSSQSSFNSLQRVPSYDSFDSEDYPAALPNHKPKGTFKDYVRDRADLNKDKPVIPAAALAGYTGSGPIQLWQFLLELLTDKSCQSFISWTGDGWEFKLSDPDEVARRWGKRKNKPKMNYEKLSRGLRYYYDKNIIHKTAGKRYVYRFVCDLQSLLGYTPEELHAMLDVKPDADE
Method: protein-binding microarray
Molecule type: double-stranded DNA, one strand shown
Medium: in vitro
Concentration: not given
Setting: k-mer, scored over probes, only values ≥0.25
Reading: higher = stronger binding
| Sequence | E-score |
| --- | --- |
| AACCGGTA | 0.371 |
| CGGAAGGC | 0.437 |
| CCGGAGCA | 0.272 |
| AAGCATCC | 0.398 |
| CGGAAGTA | 0.489 |
| AAAATCCG | 0.333 |
| AGGATGTG | 0.442 |
| TATCCGGA | 0.46 |

Block 3
Target: Prothrombin, mature alpha-thrombin (F2, Homo sapiens, UniProt P00734)
Method: aptamer microarray, sandwich
Molecule type: DNA with 2'F-ANA
Medium: in vitro
Concentration: 200 nM
Setting: whole 15-mer aptamer, many near background
Together with: Cy3 exosite-II aptamer, 400 nM
Reading: higher = stronger binding
Sequence: GGTTGGTGTGGTTGG
| Modification | mean fluorescence intensity [a.u.] |
| --- | --- |
| 2'F-ANA at 1 3 4 5 6 7 8 11 14 15 | 50.3 |
| 2'F-ANA at 1 2 4 8 9 12 15 | 333 |
| 2'F-ANA at 3 5 7 10 11 13 | 55.9 |
| 2'F-ANA at 1 2 3 4 5 8 10 11 13 14 15 | 120 |
| 2'F-ANA at 5 6 7 13 | 53.2 |
| 2'F-ANA at 1 2 3 5 6 10 12 14 | 44.4 |
| 2'F-ANA at 1 3 10 11 12 13 14 15 | 62.3 |
| 2'F-ANA at 1 4 5 8 9 11 13 | 48.3 |

Mixed results
Starting sequence: viral docking peptide; KGVKRKLFAEDSS
| Variant | target | test | test system | setting | how to read | endpoint | result |
| --- | --- | --- | --- | --- | --- | --- | --- |
| KGVKRKRFAEDSS [L7R] | CCND1, cyclin fold, Cln2 fusion (human) | yeast growth competition, sequencing | yeast | strong parent motif | reference: not given, higher = stronger binding | normalised enrichment score | 0.172 |

A few entries again (block 1):
| together with | relative binding score |
| --- | --- |
| (+)-ABA 0 µM | 1.65% |
| (+)-ABA 0.0091 µM | 2.35% |
